Published values from different studies.
Each numbered part is a random draw from the data of one study; scales do not carry over between parts. Substitutions count along the parent as printed.

Series 1 — method: protein-binding microarray; molecule type: double-stranded DNA, one strand shown; medium: in vitro; concentration: 250 nM; setting: 60-bp whole probe; with: salmon DNA 0.4 mg/ml; reference: random background probes; reading: higher = stronger binding; all sequences stand within: GCCTAGCAC … GTCTTGATTCGCTTGACGCTGCTG
Target: Interferon regulatory factor 5, full length, phosphomimetic (IRF5, Homo sapiens, UniProt Q13568-2, residues 1-514, K96S/S451D/S453D/S456D/S462D)
Oligonucleotide | log fluorescence
TTAGGTAACGGTCTCGGTTAGTGCTAG | 0.255 z-score
GACTAACTGGGGTATCGAGACGTGCTA | 0.425 z-score
TCAAGGATGGTTTTCAGACTGTGCTAG | 0.0499 z-score
TTAGGTATCGGTATCGGTCAGTGCTAG | 8.6 z-score
GACGGTATCCTACTGATGACGTGCTAG | -0.205 z-score
TTAGAACTGGGGTTTCGATTTGTGCTA | 4.85 z-score
TTAGGTTTTGGTTTCGGTTAGTGCTAG | 10.6 z-score
TTGGATCTCAGACTGGATTAGTGCTAG | -0.121 z-score
TTACATTTCGGGTTTCGATTAGTGCTA | 8.67 z-score
ACTGATTTCCACTTTCTTAAGTGCTAG | 1.69 z-score
CTAGAACTGGGGACTGGATTAGTGCTA | -0.676 z-score
GTAGATTTCAGTCTCGATTAGTGCTAG | 2.79 z-score
GAGGATTTCAGACTGGAGACGTGCTAG | -0.26 z-score
TTAGGACTGGGTCTGGGTTAGTGCTAG | -0.566 z-score
GTACATCTCTCTTAAATAGGGTGCTAG | 0.0601 z-score
CCCCCTTTTATATTGTAAGCGTGCTAG | 0.0488 z-score
TACCTTAGGTTTTCTGGTTCCGTGCTA | 0.334 z-score
GACGGTTTAGACACTGGGGACGTGCTA | -0.0412 z-score
TCAATCTTCAAGACTCATACTGTGCTA | 0.561 z-score
TCAAGACTCATAATGGCTAGGTGCTAG | -0.062 z-score
TTAGATCTCAGTCTCGATCAGTGCTAG | 0.538 z-score
TCATGCTTGCGTCTGGGACTGTGCTAG | -0.0969 z-score

Series 2 — target: CCNF, cyclin fold, Cln2 fusion (human); method: yeast growth competition, sequencing; medium: yeast; setting: weak parent motif; reference: not given; reading: higher = stronger binding
Starting sequence: PKN2 docking peptide (human); VSAVQKLDFSDTM
Substitution | normalised enrichment score
VSAVQLLDFSDTM [K6L] | -0.512
HSAVQKLDFSDTM [V1H] | 1.77
VSAVQKLRFSDTM [D8R] | 0.808
VSAVQKKDFSDTM [L7K] | 0.263
VSAVQKWDFSDTM [L7W] | -0.617
VSAVQKLDFSDVM [T12V] | 0.34
VSAVQKLDFSPTM [D11P] | -0.263
VSAPQKLDFSDTM [V4P] | -0.378
VSAVQKLDFKDTM [S10K] | -0.171
VSAVQKLDFPDTM [S10P] | 0.992
VSAVQILDFSDTM [K6I] | -0.924
VSAVQKLDFADTM [S10A] | 0.614
VSAVQKLDFWDTM [S10W] | 0.943
VSAGQKLDFSDTM [V4G] | -0.686
VSAVQKVDFSDTM [L7V] | -0.353
VSAVQKLDFSRTM [D11R] | 0.657
ASAVQKLDFSDTM [V1A] | 0.578
VSYVQKLDFSDTM [A3Y] | 0.31

Series 3 — method: RNA Bind-n-Seq; molecule type: RNA; medium: in vitro; concentration: 365 nM; reference: no-protein control; reading: higher = stronger binding
Target: RNA binding protein fox-1 homolog 2, RRM domain, GST-SBP tag (RBFOX2, Homo sapiens, UniProt O43251-10, residues 100-194)
Setting: natural RNA segment, single round, ends assumed
All sequences stand within: GGGAGUUCUACAGUCCGACGAUC … UGGAAUUCUCGGGUGCCAA
Target sequence (chain): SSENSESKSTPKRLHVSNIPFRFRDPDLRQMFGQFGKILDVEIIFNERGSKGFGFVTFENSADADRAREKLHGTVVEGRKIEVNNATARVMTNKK
Oligonucleotide | RBNS enrichment (R)
GGUCUUCAUGAAUGUUUCCUGAGUAAAGGAAGGAGACCAGCAGCUAACCUUAGUUAGAGCCUACCUUUUGCAGUUUCUAAAUUGCUAUUAUAGUGUACAGUUCAAUUAGU | 17.8
UAUCCCUUAUCCAAAAUGCUUGGAACCAGAAGUGUUUCAAAUUUUAGAUUAUUUUCAGAUUUUGGAAUGUUUGCAUAUACAUAAUGAGAUAUUUUGGGAAUAGGACCCGA | 1.48
CCUUUGUGGGUGACUUCAGGCUUCCCGCUUUCGUGGUGCUCUUCCUGGGAUUCGUUUUUUUAUUACCCUCCCUCCCUACUUGUAGGCCUCAGCUAUGGCUUGACGUAAUC | 0.348
ACCUUACAAAAAACAUAAUUAUCUAGGAGUCCCACAUACUGGACCUACCCUAUUAUACCUCCAAGAGAUAAAGGGUAUGUUAGUGAGGACUUUUGCACACAAGUGCAUGC | 0.443
ACCCAAGUUUAAUUUGGUAGCUGAAAUAUCUUUUUGCCUCAGACAGCUCUUGAAUUGCUCAUACAGAACAAUUCUGCUGGUGCUGGAGUCUGAAGAAUAUUUUCAUUUGC | 0.267
UCUGAGGUCCCCAGAGACCAAAGCCAGAUCGUCUGUCCCCCACACCUUAGGUGGGCACAGGAGGGCCGAGCUUGUUUCUACCCACUGGCAGCUGCUGACUCAACUCUGGG | 0.476
AGGUACCAAUCAUUGAUUUUUCUUUUGUAAACUAAAACGUUUAAAAUAAAAUAGCAUUUACAGUUUCUACAGACUGGUGGAACUUAAAUGAACCUGUCUUACUGUAGAAG | 0.704
AUGCUGCCGGCAAGGAGAGUGCAGCAAGAGAGAAAAUCCUCAGGGCUGAACCUGAGAUCUUGGAACUUGAGAGUAAGAGCAAUAAGAUUGUCCAGAGUGUCAUCCAGACA | 0.511
GAAAUGAAGGACUUUUUUAACCUUUUCUUUUGUUUUUAAAAAAUAAAUCUGUAAAAUUUGCCUCUUCUGUGGCUUUCUCCCAGUGAUGACGUACCUAAGGUGAGGAAAAG | 0.611
AGACCCACUAUUUUGAGUAUUUUUUAUAGACUUUAAAUACUGGGUUUUUUUCCUCCUUCAAUCUCAGGCUUUUCUCCAUCUUUUAAGCAGCCUCUGUAACUCCCUUUUGU | 0.528
UGUUGAGAGACAUAGUCUCAUUUCCCUCUCUACCUUCUAAGCUACCCUUCUUGCUAAUCCUUCUUCAGCUCUGAGGGUUGGAAUCAUAACUCACAUUCCUCAUUCCUAAG | 0.413
GAGCCCAAUCUCAGGGCAGACAUUGCCAAGGUAAAGAAUGCACUCCAUGUUUAUACCAAAUUGCACAAAGUAUAGACAUUGAGGUUAAUGGAGAUUUAAGCACAAUCCUA | 4.39

Series 4 — method: RNA Bind-n-Seq; molecule type: RNA; medium: in vitro; concentration: 200 nM; setting: whole 134-nt RNA, ends assumed; with: 150 mM LiCl; reference: input library; reading: higher = stronger binding; all molecules: 7-deaza-guanosine replaces G
Target: Fragile X messenger ribonucleoprotein 1, C-terminal low-complexity region (Fmr1, Mus musculus, UniProt P35922)
All sequences stand within: GGGAGUUCUACAGUCCGACGAUC … UGGAAUUCUCGGGUGUCAAGG
Oligonucleotide | log2 enrichment
GCAGGAAGUAAAAACAAAUGGAAAUGCUACGGAUAGUGGCAGGGGUGGGGGUUGCUAAGGAAAGGGUGGGAUGGGAGUGGGUAAAGAGUU | 1.64
UAGGUAUUUCUGGGAAAAGCCAGCUUCUGUUUGCACUGGUCUUCACAACUCGUUACCUGGAUCUUUUUACUUCAUUUAUUUCAUUGUAUA | -2.48
UGGCCCUGGUGGCAUGCGGGGAGGAAGAGGUGGCCUCAUGGAUCGUGGUGGUCCCGGUGGAAUGUUCAUAGGUGGCCGUGGUGGAGACAG | -0.818
CUCAAGUCCUGUGCUACACAUCGUAUGUACCGAAUCGGAAAAAGGUUUGGUGGAAAGUAUUAUGUUACGCCGUUCGGAUCUGCACUUCCA | -0.399
CACAGACAACACGCACCCACACAGACACAGAGGGAAGGGGUUGGGAUGGCGACAGGGUGCACAGCAGGGCGGGGUAGGACCCCAGCCCCU | 0.148
AAGUCCUGUGCUACACAUCGUAUGUACCGAAUCGGUUUUUGGAAAAAGGUUUUUGGAAAGUAUUAUGUUACGCCGUUCGGAUCUGCACUU | -3.27
GCAGGAAGAAAAAACAAAUGGAAAUGCUUCGGAUAGUGGCAGGGGUGGGGGUUGCUAAGGAAAGGGUGGGAUGGGAGUGGGUAAAGAGUU | 1.54
UGGCCCUGGUGGCAUGCGGGGAGGAAGAGGUGGCCUCGUGGAUCGUGGUGGUCCCGGUGGAAUGUUCAGAGGUGGCCGUGGUGGAGACAG | 0.218
UGGGAGGUGGAUUUUGUUUAUUUUUUUAGCUCAUUUCCAGGGGUGGGAAUUUUUUCUUAAUAUGUGUCAUGAAUAAAGUUGUUUUUGAAA | -0.558
UUGCGGCAGCCGCCCCCUUCUGCGCGGUCACGCCGAGCCAGCGCCUGGGCCUGGAACCGGGCCGUAGCCCCCCCAGUUUCGCCCACCACC | 0.617
UCGGAUGGCUUCGCAUUUCCCCAAUACCCCAUUAAACCGUAUCAUCUGAAGAGGAUCCACAGAGCUGUCUUACAUGGUAAUCUAGAGAAA | 1.07

Excerpt of the above (series 1):
Oligonucleotide | log fluorescence
CTAGAACTGGGGACTGGATTAGTGCTA | -0.676 z-score
ACTGATTTCCACTTTCTTAAGTGCTAG | 1.69 z-score
TACCTTAGGTTTTCTGGTTCCGTGCTA | 0.334 z-score
CCCCCTTTTATATTGTAAGCGTGCTAG | 0.0488 z-score
GACGGTTTAGACACTGGGGACGTGCTA | -0.0412 z-score
TTAGATCTCAGTCTCGATCAGTGCTAG | 0.538 z-score
TTAGGACTGGGTCTGGGTTAGTGCTAG | -0.566 z-score
GTAGATTTCAGTCTCGATTAGTGCTAG | 2.79 z-score
